Results of several laboratories.
Lines come from different studies, so protocols differ. Values joined by “and” are separate records of one study, mostly repeats; a detail may differ. ± gives the spread as reported.

For `Cc1ccc([N+](=O)[O-])cc1S(=O)(=O)N(C)/N=C/c1cnc2ccc(Br)cn12`, “annexin V+/PI+ cells” read 25.5% (HuT78; 200 nM).
`O=C(C[Se]C(=O)c1cc2ccccc2s1)Nc1cccc(C(F)(F)F)c1` — result for “mean growth percent”: -75.7% (NCI60 ovarian subpanel; cell growth; 10 µM, 48 h, one-dose).
The fold regulation of `CCN(CC)CC(=O)Nc1cccc(-n2cc(-c3ccc4ccc(-c5cn(-c6cccc(NC(=O)CN(CC)CC)c6)nn5)cc4c3)nn2)c1` is reported as -1.11 (RCC4; PCR array, item: EGF; 5 x IC50, 2 h, normoxia; reference: untreated).
The viability of `CSC(=S)N/N=C(\C)c1ccc(Nc2nnc(-c3ccc(Cl)cc3)c3ccccc23)cc1` is reported as 92.9% (MCF7; cell growth or viability, MTT; 78 nM, 24 h).
The cell proliferation of `COP(=O)(OC)OCC1(O)O[C@H](COP(=O)(O)O)[C@@H](O)[C@@H]1O` (stereo partly shown) is reported as 44.3% and 48.4% and 41% (HepG2 sgCTRL; CCK-8; concentration not given; reference: control).
`C=CC(=O)N1[C@H](c2ccc3c(c2)OCO3)c2[nH]c3ccccc3c2C[C@@H]1C(=O)NC` has a neuron degeneration of 76.6% and 77.1% (rat DRG neurons; 0.01372 µM, 48 h, with: vincristine 40 nM).
`O=C(C[Se]C(=O)c1ccc2ccccc2n1)Nc1cccc(C(F)(F)F)c1` has a mean TGI of 4.05 µM (NCI60 ovarian subpanel; total growth inhibition, inhibitor; five-dose).
`CCCCCCCCCCCC(=O)N[C@H](CO)C[C@@H](O)c1ccccc1` — result for “Cer 24:1 level”: 23300 pmol/sample and 24000 pmol/sample and 23900 pmol/sample (HeLa; HPLC-MS/MS; 1 µM, 24 h).
For `Cc1[nH]c(=S)[nH]c(=O)c1/N=N/c1nnc(S)[nH]1`, the inhibition was 16.6 ± 0.92% (Vero; cell viability, MTT; 5.0 µg/mL).
With `CCCC(CCC)C(=O)OCc1cn(-c2cc3ccccc3oc2=O)nn1` the growth percentage was 101% (SR; NCI60 single-dose screen; 10 µM).
Under “log2 fold change”, `CN1CCCNC(=O)c2cccc(c2)C(=O)NCCCN(C)CCCNc2cccc3c2C(=O)c2cccc(c2C3=O)NCCC1` is recorded as -0.615 (SAS; RNA-Seq, item: EIF2S3 mRNA; 1 µM, 6 h; reference: untreated cells).
`Cc1ncsc1-c1ccc(C(C)NC(=O)C2CC(O)CN2C(=O)C(NC(=O)CCCCCCCCCCN2CCCC(Nc3ncc(Cl)c(Nc4ccccc4S(=O)(=O)C(C)C)n3)C2)C(C)(C)C)cc1` (stereo not shown) — result for “log2 fold change”: -1.02 (22Rv1; RNA-seq, item: PLEKHG2 mRNA; concentration not given; reference: DMSO).
`O=C(NCc1cc(F)cc(F)c1)[C@@]1(O)CCN(c2ccc3[nH]ccc3c2)C1=O` has a maximal inhibition of 31% (Melanoma PDX-derived tumour cells; colony formation, soft agar clonogenic; concentration not given, 8-10 days).
`CCN(C(=O)c1cc(F)ccc1Oc1nncnc1N1CCC2(C1)CN([C@H](CCCN(C)CCOC)C(C)C)C2)C(C)C` gave a GI50 of greater than 10 µM (IGROV-1; cell growth or viability; 7 days).
For `CO[C@@H]1[C@@H](OC(N)=O)[C@@H](O)[C@H](Oc2ccc3c(O)c(NC(=O)c4ccc(O)c(CC=C(C)C)c4)c(=O)oc3c2C)OC1(C)C`, the colony count was 58.5 (DLD-1 parental; 75 µM, replicate 1).
With `N#Cc1cccc(/C=C/C(=O)c2ccc(O)cc2)c1` the fold change was 0.043 (U-87 MG; item: RPS18; concentration not given; reference: untreated).
With `CCOc1cncc(-c2ccc(NC(=O)C3(c4ccnc(NS(=O)(=O)C5CC5)n4)CCOCC3)nc2)n1` the IC50 was 0.048 µM (EM-2; cell proliferation, CellTiter-Glo; 72 h).
`COCCCCCNc1nc(NCCCCCCN(C)C)c2cc(NC(=O)/C=C/CN(C)C)ccc2n1` has a viability of 1.04 and 0.977 and 1.02 (MCF7; CellTiter-Glo; 0.7812 µM, 24 h, unit not given; reference: DMSO-treated cells).
`CN(C)CCN1CCN(c2ccc3nc(-c4ccc5nc(-c6ccc(C(F)(F)F)cc6)[nH]c5c4)[nH]c3c2)CC1` gave a growth percent of 67.8% (SF-268; SRB; 10 µM, 48 h).
Under “log2 fold change”, `C[C@@H]1Cc2c([nH]c3ccccc23)[C@@H](c2c(F)cc(/C=C/C(=O)O)cc2F)N1C12CC(C1)C2` is recorded as -1.44 (MCF7; RNA-seq, item: FMN1 mRNA; 1 µM, 24 h, E2-induced gene; reference: DMSO vehicle).
For `O=C(C[Se]C(=O)c1cccnc1Nc1cccc(C(F)(F)F)c1)Nc1cccc(C(F)(F)F)c1`, “mean growth percent” read -89.8% (NCI60 non-small-cell lung subpanel; cell growth; 10 µM, 48 h, one-dose).
With `CC(=O)OC[C@H]1O[C@@H](n2cc(CSc3nc4ccccc4n3Cc3cn([C@@H]4O[C@H](COC(C)=O)[C@@H](OC(C)=O)C(OC(C)=O)[C@H]4OC(C)=O)nn3)nn2)[C@H](OC(C)=O)C(OC(C)=O)[C@@H]1OC(C)=O` (stereo in doubt) the cytotoxicity was 30.7% (HEK293; MTT; 31.3 ppm).
For `Nc1ncn([C@@H]2O[C@H](CO)[C@@H](O)[C@H]2O)c(=O)n1`, the inhibition was -4.44% (AML blasts, primary, RUNX1-mutated; CD34+ blast expansion; 810 nM, HUVEC co-culture).
With `COc1ccccc1[C@H](Cn1c(=O)n(C(C)(C)C(N)=O)c(=O)c2c(C)c(-c3ncco3)sc21)OC1CCOCC1` the EC50 was 0.053 µM (NCI-H157; cell proliferation, inhibitor; 168 h).
`O=C1C(Br)=C(Br)C(=O)c2ccccc21` gave a selectivity index of 28.7 (MOLT-3; XTT; reference: IC50 MRC-5 over IC50 MOLT-3).
For `O=C(C[Se]C(=O)c1ccc2ccccc2c1)Nc1cccc(C(F)(F)F)c1`, “mean growth percent” read -76.3% (NCI60 ovarian subpanel; cell growth; 10 µM, 48 h, one-dose).
With `CC(C)c1ccc(N(C)c2ccc3c(c2)OCC[C@H]3CNc2cnccc2C(=O)O)cc1` the IC50 was 0.00536 µM (C32; cell growth or viability, ATP luminescence; 7 days).
For `COC(=O)c1cc(NC2=NC(=O)C(=Cc3ccc(N(C)C)cc3)S2)ccc1OC(C)=O`, the metabolite level was -0.06 fold change (MCF7; GC-MS, item: 2-Butenedioic acid; 1 µM; reference: DMSO).
For `CC(=O)Oc1ccccc1C(=O)[Se]CC(=O)Nc1cccc(C(F)(F)F)c1`, “mean growth percent” read -46.2% (NCI60 non-small-cell lung subpanel; cell growth; 10 µM, 48 h, one-dose).
For `CNS(=O)(=O)Nc1nccc(Cc2c(C)c3ccc(Oc4ncccc4F)cc3oc2=O)c1F`, the IC50 was 0.124 µM (Lu-99; cell viability; 7 days).
`COc1ccccc1-c1ccncc1C(=O)Nc1nnc(OCc2ccc(Cl)cc2)s1` gave a colony survival of 90.6% (MDA-MB-231; 1.5 µM, mean of 3 replicates; reference: untreated).
`Cn1ncc2cc(-c3cncc(Cl)c3N3CCC4(CCNC4=O)CC3)ccc21` — result for “log2 fold change”: -2.21 (LS174T; gene expression, microarray, item: RAG1 mRNA; concentration not given, 4 h; reference: untreated cells).
`O=C(C[Se]C(=O)c1cc2ccccc2[nH]1)Nc1cccc(C(F)(F)F)c1` gave a mean TGI of 2.95 µM (NCI60 ovarian subpanel; total growth inhibition, inhibitor; five-dose).
`O=C(Nc1nnc2c1c(-c1ccc(Cl)cc1)nc1sc(=Cc3ccco3)c(=O)n12)c1ccccc1` (mixture of isomers) has a cell growth of 51% (SF-295; SRB; 10 µM, NCI60 single-dose screen; reference: untreated).

Excerpt of the above:
With `CCCC(CCC)C(=O)OCc1cn(-c2cc3ccccc3oc2=O)nn1` the growth percentage was 101% (SR; NCI60 single-dose screen; 10 µM).
Under “log2 fold change”, `CN1CCCNC(=O)c2cccc(c2)C(=O)NCCCN(C)CCCNc2cccc3c2C(=O)c2cccc(c2C3=O)NCCC1` is recorded as -0.615 (SAS; RNA-Seq, item: EIF2S3 mRNA; 1 µM, 6 h; reference: untreated cells).
`Cc1ncsc1-c1ccc(C(C)NC(=O)C2CC(O)CN2C(=O)C(NC(=O)CCCCCCCCCCN2CCCC(Nc3ncc(Cl)c(Nc4ccccc4S(=O)(=O)C(C)C)n3)C2)C(C)(C)C)cc1` (stereo not shown) — result for “log2 fold change”: -1.02 (22Rv1; RNA-seq, item: PLEKHG2 mRNA; concentration not given; reference: DMSO).
`O=C(NCc1cc(F)cc(F)c1)[C@@]1(O)CCN(c2ccc3[nH]ccc3c2)C1=O` has a maximal inhibition of 31% (Melanoma PDX-derived tumour cells; colony formation, soft agar clonogenic; concentration not given, 8-10 days).
`CCN(C(=O)c1cc(F)ccc1Oc1nncnc1N1CCC2(C1)CN([C@H](CCCN(C)CCOC)C(C)C)C2)C(C)C` gave a GI50 of greater than 10 µM (IGROV-1; cell growth or viability; 7 days).
